Published values of several laboratories.
Each numbered part is a random draw from the data of one study; scales do not carry over between parts. Positions count from the first letter of the parent shown.

Series 1 — target: CCNA1, cyclin fold, Cln2 fusion (human); technique: yeast growth competition, sequencing; matrix: yeast; setting: weak parent motif; reference: not given; direction: higher = stronger binding; measurement: normalised enrichment score
Parent: BRCA2 docking peptide (human); PSIKRNLLNEFDR
F11W: 0.655
N9P: 0.721
D12N: 0.645
N6K: 0.828
L7A: 0.048
D12W: 0.789
L8A: 0.445
S2Y: 0.28
F11T: 0.438
I3L: 0.433
N6V: 0.173
E10S: 0.345
R13W: 0.945
F11Q: 0.164
R13D: 0.333
L7T: 0.416
R5K: 0.383
P1Q: 0.663
F11E: 0.0698
R5K F11L: -0.291
R5C: 0.427
D12T: 0.612
R5Q: 0.53
L8T: 0.421
L7K: 0.35

Series 2 — technique: aptamer microarray, sandwich; molecule type: DNA with 2'F-ANA; matrix: in vitro; concentration: 200 nM; with: Cy3 exosite-II aptamer, 400 nM; direction: higher = stronger binding; measurement: mean fluorescence intensity; strand: GGTTGGTGTGGTTGG
Target: Prothrombin, mature alpha-thrombin (F2, Homo sapiens, UniProt P00734)
Setting: whole 15-mer aptamer, many near background
2'F-ANA at 3 6 7 8 9 13 15: 797 a.u.
2'F-ANA at 1 7 12 14: 73.4 a.u.
2'F-ANA at 1 3 4 6 7 8 9 12 15: 424 a.u.
2'F-ANA at 3 4 5 6 8: 109 a.u.
2'F-ANA at 1 4 5 6 9 10 11 12 15: 49.5 a.u.
2'F-ANA at 2 4 6 8 14: 92.5 a.u.
2'F-ANA at 1 2 4 6 8 12 13 14: 61 a.u.
2'F-ANA at 2 3 6 10 11 12 14 15: 217 a.u.
2'F-ANA at 5 6 8 13 15: 56.1 a.u.
2'F-ANA at 1 6 7 8 9 10 13: 54.3 a.u.
2'F-ANA at 1 2 3 4 6 8 13 15: 150 a.u.
2'F-ANA at 3 4 5 6 11 13 14: 56.4 a.u.
2'F-ANA at 1 4 5 7 8 9 10 11 12 13: 48.4 a.u.
2'F-ANA at 1 3 4 7 9 13: 108 a.u.
2'F-ANA at 2 3 4 5 6 7 8 10 13 14: 49.8 a.u.
2'F-ANA at 7 9 10 11 13 14: 108 a.u.
2'F-ANA at 2 4 5 9 10 12 13: 44.9 a.u.
2'F-ANA at 1 2 4 8 9 11 12 13 15: 150 a.u.
2'F-ANA at 1 2 3 5 9 13 14 15: 44.3 a.u.
2'F-ANA at 1 3 4 5 6 8 10 11 13: 80.4 a.u.
2'F-ANA at 2 3 7 14: 513 a.u.

Series 3 — technique: RNA Bind-n-Seq; molecule type: RNA; matrix: in vitro; concentration: 1 µM; setting: whole 134-nt RNA, ends assumed; with: 150 mM KCl; reference: input library; direction: higher = stronger binding; measurement: log2 enrichment
Target: Ras GTPase-activating protein-binding protein 1, RRM domain (G3BP1, Homo sapiens, UniProt Q13283)
Sequence of UniProt Q13283 (whole entry, looked up): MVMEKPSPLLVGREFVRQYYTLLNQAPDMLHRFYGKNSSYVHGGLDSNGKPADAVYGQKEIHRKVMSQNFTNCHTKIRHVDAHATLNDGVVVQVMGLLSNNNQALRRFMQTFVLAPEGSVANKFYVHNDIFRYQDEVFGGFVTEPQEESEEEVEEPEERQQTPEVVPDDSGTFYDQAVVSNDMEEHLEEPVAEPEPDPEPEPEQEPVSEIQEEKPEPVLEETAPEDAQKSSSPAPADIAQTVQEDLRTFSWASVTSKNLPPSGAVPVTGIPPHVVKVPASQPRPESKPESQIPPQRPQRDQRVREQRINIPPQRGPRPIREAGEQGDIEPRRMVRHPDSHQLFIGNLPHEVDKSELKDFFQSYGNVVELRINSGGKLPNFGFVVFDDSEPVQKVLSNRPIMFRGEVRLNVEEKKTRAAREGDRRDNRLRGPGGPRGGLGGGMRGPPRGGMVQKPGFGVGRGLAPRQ
Shared flanks, not repeated: GGGAGUUCUACAGUCCGACGAUC … UGGAAUUCUCGGGUGUCAAGG
AGUCCUGUGCUACACAUCGUAUGUACCGAAUCGGGGCCCCGGGCCCCGGGCCCCGGGGAAAGUAUUAUGUUACGCCGUUCGGAUCUGCAC: -0.979
CUGUGCUACACAUCGUAUGUACCGAAUCGGGAAAAAAAGGGAAAAAAAGGGGAAAAAAAGGAAAGUAUUAUGUUACGCCGUUCGGAUCUG: 0.125
GGUAAACGCCCUGCAGAAGAUAUGGAAGAGGAACAAGCAUUUAAAAGAUCUAGAAACACUGAUGAGAUGGUUGAAUUACGCAUUCUGCUU: 0.0265
UAACUUUAGAGGAGGAUCUGAUGGAUAUGGCAGUGGACGUGGAUUUGGGGAUGGCUAUAAUCGGUAUGGAGGAGGACCUGGAGGUGGCAA: -0.236
ACCAUGCAGGUGGGCAUCUUUGGGAAGUGGGGCAAGGGGGGGAUAGGGAGGGGGGUAACACUUUGUGAACAGGUGGUCCCAGGUCGUUUC: 1.04
UAACUUUAGAGGAGGAUCUGAUGGAUAUGGCAGUGGACGUGGAUUUGGGGAUGGUUAUAAUGGGUAUGGAGGAGGACCUGGAGGUGGCAA: -0.31
CACAGACAACACGCACCCACACAGACACAGAGGGAAGGGGUUGGGAUGGGGACAGGGUGCACAGCAGGGAAAGGUAGGACCCCAGCCCCU: -0.192
CACAGACAACACGCACCCACACAGACACAGAGGGAAGGGGUUGUGAUGGGGACAGGGUGCACAGCAGGGCGGGGUAGGACCCCAGCCCCU: -0.153
CCUGUGCUACACAUCGUAUGUACCGAAUCAAAUUUUUUUAAAUUUUUAAAUUUUUUUAAAAAAGUAUUAUGUUACGCCGUUCGGAUCUGC: -0.266

Series 4 — technique: RNA Bind-n-Seq; molecule type: RNA; matrix: in vitro; concentration: 100 nM; reference: input RNA pool; direction: higher = stronger binding; measurement: bound/input enrichment
Target: RING finger protein unkempt homolog, zinc fingers 1-6, SBP tag (UNK, Homo sapiens, UniProt Q9C0B0, residues 30-357)
Sequence of UniProt Q9C0B0 (30-357, looked up): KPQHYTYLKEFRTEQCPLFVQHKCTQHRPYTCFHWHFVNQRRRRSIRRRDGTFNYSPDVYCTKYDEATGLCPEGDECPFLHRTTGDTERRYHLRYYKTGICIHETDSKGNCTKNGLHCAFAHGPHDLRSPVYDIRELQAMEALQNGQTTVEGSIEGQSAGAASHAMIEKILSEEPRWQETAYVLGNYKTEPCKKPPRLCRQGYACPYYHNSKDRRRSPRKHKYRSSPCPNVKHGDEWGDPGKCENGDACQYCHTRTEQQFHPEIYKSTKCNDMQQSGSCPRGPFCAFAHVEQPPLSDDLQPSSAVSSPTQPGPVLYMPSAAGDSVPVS
Setting: RNA with constant flanks, vertebrate orthologous sites, ends assumed
Shared flanks, not repeated: GGGAGUUCUACAGUCCGACGAUC … CAACAGAGGAUUGAGCAUCA
CAUGCACAUGCCGCUGUCACCAAAAGCAAACACCUUUUUCAAAUACAUUAAUAGCAUUUUUAAUAUUCCCUCUUUCCUUCUAAUAGUUUUUAGCAUUAGAGGAACAGAAAUCUUGAUUCU: 3.5 ratio
ACAGAGGCACUUUCUCCUUCGGUCUUUCAUUGUAAGAAGAAAUGGACCCAUGCACAUUUAUAUAGCUUUCUAAUAGCAUUAAAACCAAUGCCUUUUUAGACUCCUAUUUUUGAUGUAUAU: 0.417 ratio
GACUGGAUGCAGCGCAAAACGUACCCAAGGCAGUGACUUCGACUUCCUAUACGUUGUUAUUCAAAGUCACCUACUUUUAUUUCAGCGUCUAGACUGGAUUGUUAGCGCUACUGCUCUUUG: 0.346 ratio
UAAGUAAAAUACUGGAUGCAGCAUAUAGAUGAUCCAAGGCAGUGACUUUAGCUUUAGAUACUAGUUUUAAGGUUAUUUACAUUUAUUUAAACUUUUACAUUGGACUAUUUGCUAUUGCUG: 0.502 ratio
UUCUCUGAGCGGCAGCCUUCCGUCUGUGGCCGACUCGCACUCCAGCCACUUCUCAGAGUUCAGCUGCUCUGACCUGGACGCCUGCAGACCUACAUGCUACGAGUCUCACAUCCGCCAUCC: 0.484 ratio
CCAGUCUUCCACUUAGGAUCGGCCUCAAAUCUAUAGAAUUUAUGACAAUUGUGUAUCUACUUAGGUUGACGUUAAUAUUUUUUUAUUAGUCUGUAAAUAAAGAUGGCAUCUUCUAUAUUA: 0.896 ratio
GAAGAUGGUGGUUGUACAUUAUUCAUUUAGAAAAUAUAAAAAUUCAUUUUGUUUUGAAGCUAGGCAUUAAACUGGAAUAGCAGUUUUACCCCUGAGAAUGGGGCCCUUCCCUUGACAUUC: 3.75 ratio
UUUUCUUUCUUUUGAUUUUCUUUAUUUUUUUCUUUCUUUCCUUCCUUCCUUUUUUUUUGGUAGAUGUUGUUACCCACGCCAUUUUAUGUCUCCUUCACUGAAGGGCUAGAGUUUUAACUU: 2.49 ratio

Repeated from above (series 1):
P1Q: 0.663
F11E: 0.0698
R5K F11L: -0.291
R5C: 0.427
D12T: 0.612
R5Q: 0.53
L8T: 0.421
